{"data": "Experimental data from different studies", "note": "Parts stem from different laboratories: compare values within a part only. Substitutions count along the parent as printed."}
{"data": "Sample 1", "target": "UBE2N UBC core domain (UniProt P61088)", "method": "yeast two-hybrid", "matrix": "yeast", "notes": "mostly zero background", "reference": "not given", "reading": "higher = stronger interaction", "B1": "RNF181 RING domain (UniProt Q9P0P0); chain VIRGSQAELKCPVCLLEFEEEETAIEMPCHHLFHSSCILPWLSKTNSCPLCRYELPTDDDTY", "B2": "Ltn1 RING domain (UniProt Q6A009); chain VDKRFEGVEDCMICFSVIHGFNYSLPKKACRTCKKKFHSACLYKWFTSSNKSTCPLCRETFF", "B3": "RNF135 RING domain (UniProt Q8IUD6); chain PVWLAEDDLGCIICQGLLDWPATLPCGHSFCRHCLEALWGARDARRWACPTCRQGAAQQPHLR", "B4": "PRKN RING domain (UniProt O60260); chain LIATNSRNITCITCTDVRSPVLVFQCNSRHVICLDCFHLYCVTRLNDRQFVHDPQLGYSLPCVAGCPNSLIKELHH", "Residues (chain)": "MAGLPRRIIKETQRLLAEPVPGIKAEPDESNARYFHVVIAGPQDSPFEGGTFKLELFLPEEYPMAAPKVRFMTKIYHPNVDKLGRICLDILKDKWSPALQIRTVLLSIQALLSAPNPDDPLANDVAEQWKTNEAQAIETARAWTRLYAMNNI"}
{"Molecule": "B1 (RNF181 RING domain)", "lacZ reporter activity": 0}
{"Molecule": "B2 (Ltn1 RING domain)", "lacZ reporter activity": 0}
{"Molecule": "B3 (RNF135 RING domain)", "lacZ reporter activity": 0}
{"Molecule": "QLRRLQEERTCKVCLDRAVSIVFVPCGHLVCAECAPGLQLCPICRAPVRSRVRTF (BIRC7 RING domain (UniProt Q96CA5))", "lacZ reporter activity": 0}
{"Molecule": "MDDQGCPRCKTTKYRNPSLKLMVNVCGHTLCESCVDLLFVRGAGNCPECGTPLRKSNFRV (MNAT1 RING domain (UniProt P51948))", "lacZ reporter activity": 0}
{"Molecule": "KLWDINAHITCRLCSGYLIDATTVTECLHTFCRSCLVKYLEENNTCPTCRIVIHQSHPLQ (PCGF3 RING domain (UniProt Q3KNV8))", "lacZ reporter activity": 0}
{"Molecule": "B4 (PRKN RING domain)", "lacZ reporter activity": 0}
{"Molecule": "KITELNPHLMCVLCGGYFIDATTIIECLHSFCKTCIVRYLETSKYCPICDVQVHKTRPLL (BMI1 RING domain (UniProt P35226))", "lacZ reporter activity": 0}
{"data": "Sample 2", "target": "CCNB3, cyclin fold, Cln2 fusion (human)", "method": "yeast growth competition, sequencing", "matrix": "yeast", "notes": "weak parent motif", "reference": "not given", "reading": "higher = stronger binding", "starting sequence": "CABLES2 docking peptide (human); ICAKRSLCAAFSV"}
{"Variant": "ICAKRALCAAFSV [S6A]", "normalised enrichment score": 0.553}
{"Variant": "ICAKRSLCAAASV [F11A]", "normalised enrichment score": 0.246}
{"Variant": "ACAKRSLCAAFSV [I1A]", "normalised enrichment score": 0.116}
{"Variant": "ICAKASLCAAFSV [R5A]", "normalised enrichment score": 0.192}
{"Variant": "IAAKRSLCAAFSV [C2A]", "normalised enrichment score": 0.00539}
{"data": "Sample 3", "target": "JUND, bZIP domain (human)", "method": "DHFR protein complementation", "matrix": "yeast", "notes": "single substitutions, most at no-binding floor", "reference": "wild-type JUN-FOS pair", "reading": "higher = stronger binding", "starting sequence": "JUN, bZIP domain (human); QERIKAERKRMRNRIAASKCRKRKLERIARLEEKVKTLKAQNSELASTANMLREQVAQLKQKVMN; partner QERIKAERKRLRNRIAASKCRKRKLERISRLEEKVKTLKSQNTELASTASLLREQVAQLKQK"}
{"Variant": "E44N", "binding fitness": "-1.02 natural log"}
{"Variant": "N42G", "binding fitness": "-1.16 natural log"}
{"Variant": "S43E", "binding fitness": "-0.365 natural log"}
{"Variant": "A49N", "binding fitness": "-0.388 natural log"}
{"Variant": "K34E", "binding fitness": "-0.262 natural log"}
{"Variant": "R30H", "binding fitness": "-0.532 natural log"}
{"Variant": "E54M", "binding fitness": "-0.947 natural log"}
{"Variant": "T37D", "binding fitness": "-0.551 natural log"}
{"Variant": "Q55I", "binding fitness": "-1.16 natural log"}
{"Variant": "T48E", "binding fitness": "-0.455 natural log"}
{"Variant": "I28L", "binding fitness": "-0.91 natural log"}
{"Variant": "V35C", "binding fitness": "-0.912 natural log"}
{"Variant": "M51T", "binding fitness": "-0.641 natural log"}
{"Variant": "E33Q", "binding fitness": "-0.846 natural log"}
{"Variant": "A49Y", "binding fitness": "-0.927 natural log"}
{"data": "Sample 4", "target": "ABI1, truncated, D143A, DHFR fusion (Arabidopsis thaliana)", "method": "DHFR PCA, deep sequencing", "matrix": "yeast", "notes": "methotrexate growth selection, single substitutions", "with": "(+)-ABA 0.11 µM", "reference": "wild-type fitted maximum", "reading": "higher = stronger binding", "starting sequence": "PYL1, truncated, DHFR fusion (Arabidopsis thaliana); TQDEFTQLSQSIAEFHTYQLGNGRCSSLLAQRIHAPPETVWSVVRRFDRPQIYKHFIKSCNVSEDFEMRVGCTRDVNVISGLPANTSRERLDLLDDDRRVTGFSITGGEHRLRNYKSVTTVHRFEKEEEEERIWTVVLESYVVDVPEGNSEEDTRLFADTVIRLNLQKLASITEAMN; partner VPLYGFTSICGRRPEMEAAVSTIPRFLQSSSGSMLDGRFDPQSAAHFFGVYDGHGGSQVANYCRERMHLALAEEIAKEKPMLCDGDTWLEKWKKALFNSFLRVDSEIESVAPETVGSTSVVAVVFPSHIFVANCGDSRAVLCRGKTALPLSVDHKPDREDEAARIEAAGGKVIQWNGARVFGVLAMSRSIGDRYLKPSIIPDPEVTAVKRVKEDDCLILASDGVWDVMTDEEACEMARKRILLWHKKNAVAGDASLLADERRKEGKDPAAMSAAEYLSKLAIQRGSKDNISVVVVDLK"}
{"Variant": "V40Q", "relative binding score [%]": -4.98}
{"Variant": "D95K", "relative binding score [%]": -2.94}
{"Variant": "I12W", "relative binding score [%]": -4.94}
{"Variant": "E131I", "relative binding score [%]": 23.4}
{"Variant": "A84S", "relative binding score [%]": 37.1}
{"Variant": "E152S", "relative binding score [%]": 16.2}
{"Variant": "E125F", "relative binding score [%]": 26.3}
{"Variant": "E38C", "relative binding score [%]": 0.593}
{"Variant": "F103V", "relative binding score [%]": -6.78}
{"Variant": "I162Q", "relative binding score [%]": 0.769}
{"Variant": "D75L", "relative binding score [%]": 44.1}
{"Variant": "Q31R", "relative binding score [%]": 11.8}
{"Variant": "G23I", "relative binding score [%]": -0.186}
{"Variant": "E147W", "relative binding score [%]": -0.685}
{"Variant": "L93A", "relative binding score [%]": 3.22}
{"Variant": "D153Y", "relative binding score [%]": 0.191}
{"Variant": "I33E", "relative binding score [%]": 3.49}
{"Variant": "T101P", "relative binding score [%]": -7.01}
{"data": "Sample 5", "target": "RING finger protein unkempt homolog, zinc fingers 1-6, GST-SBP tag (UNK, Homo sapiens, UniProt Q9C0B0, residues 30-357)", "method": "RNA Bind-n-Seq", "molecule type": "RNA", "matrix": "in vitro", "tested at": "not given", "notes": "RNA with constant flanks, ends assumed", "reference": "input RNA pool", "reading": "higher = stronger binding", "shared flanks, not repeated": "GGGAGUUCUACAGUCCGACGAUC … CAACAGAGGAUUGAGCAUCA", "sequence of UniProt Q9C0B0 (30-357, looked up)": "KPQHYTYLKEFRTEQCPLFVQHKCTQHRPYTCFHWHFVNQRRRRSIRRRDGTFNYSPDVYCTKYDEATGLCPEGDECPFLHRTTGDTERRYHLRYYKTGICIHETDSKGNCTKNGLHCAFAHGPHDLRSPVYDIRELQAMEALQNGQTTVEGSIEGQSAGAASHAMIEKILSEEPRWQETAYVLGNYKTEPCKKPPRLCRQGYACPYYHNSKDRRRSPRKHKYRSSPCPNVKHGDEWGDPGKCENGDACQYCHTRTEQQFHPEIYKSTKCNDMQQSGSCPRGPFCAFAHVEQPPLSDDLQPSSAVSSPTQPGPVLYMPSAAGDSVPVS"}
{"Oligonucleotide": "UCUGAGGAAAAGGGACACCCCCAGGAGGAAUCUGAGGAGUCAAACGUCAGCAUGGCCAGUUCCGGGGAAAAGAGGGACCACCAUUCAACCCACUACAGGGCUUCAGAGGAAGAACCUGAA", "bound/input enrichment": "0.143 ratio"}
{"Oligonucleotide": "UGAGUUCUAUUAUUGAUUAAAGAAGACAGAUUUACAUUCAGGAUUCUGGUGUCUGGAGGCUCCGCCUCAAAGCCAGUUUUGAUGACUUAGAAGGCAAUCUAUGUCACUGUCCCCACAAAG", "bound/input enrichment": "0.206 ratio"}
{"Oligonucleotide": "GAAAAUGGAAGGUGUGUUACUAAGCUGGAGAGCAUGGGGUUCCGAGUGGGGCAAGGACUGACCGAAAGGUUUACGAAAGAUACUGCAAGGUUCAAGGAUGAAUUAGACAUCAUGAAGUUC", "bound/input enrichment": "0.34 ratio"}
{"Oligonucleotide": "GCGGAGAAGGACUCCCUGGACCCCUCCUUCACGCACGCCCUGCGCCUGGUGAACCAAGAAACCGAAAAGUUUCAAAAAGGAGAAGGCAAGGAUGAAGAAAAGUACAUCGAUGUGGUGAUU", "bound/input enrichment": "0.16 ratio"}
{"Oligonucleotide": "CAACUGUCAUUACCCCUUAACUUCCUGGGAACUGUAUAUAGAGAGACAAGACAAGCACUCACCGAUAUGAACACCUUGUUUACUCUGCUCAAGGUAGACACACGGAUUAAAGACAAAGUG", "bound/input enrichment": "0.46 ratio"}
{"Oligonucleotide": "AACAUUAGAAGACAGUGGGAAGAUGAUCCUCCAAAUGUACACAUUAUUGGAAAUCUACCUUUCCGUGUUUCAACUCCACUGAUUAUCAAGUGGCUUGAAAAUAUUUCUCUUAAAGAUGGC", "bound/input enrichment": "0.133 ratio"}
{"Oligonucleotide": "GGCCCUUGACCGUGUGGCCUCUGCCUGGCUGUUUGGGGUCCUGCACGGCUUUCCCACCACCUGCCGCUCUUGUUGACCUGCCUGUUCACCUCAUGAGUGAAGCGUCUGCCUGGCAGUGGG", "bound/input enrichment": "0.157 ratio"}
{"Oligonucleotide": "UUACAGUCAUUGAUGGACUCUAUUUUUUUAUUAUUACUUGGACCUUGGUCGUUUUUAUACCCGCAAAAUGUCUUGUUUUAAUUUGUGUUUUUUGGGGGGAGGGAGGGAGUGAACUUGCUG", "bound/input enrichment": "2.32 ratio"}
{"data": "Sample 6", "target": "Sal-like protein 4, full length isoform A (SALL4, Homo sapiens, UniProt Q9UJQ4, residues 1-1053)", "method": "universal PBM", "molecule type": "double-stranded DNA, one strand shown", "matrix": "in vitro", "tested at": "600 nM", "notes": "8-mer, flanks averaged, mean of replicates", "reading": "higher = stronger binding", "sequence of UniProt Q9UJQ4 (whole entry, looked up)": "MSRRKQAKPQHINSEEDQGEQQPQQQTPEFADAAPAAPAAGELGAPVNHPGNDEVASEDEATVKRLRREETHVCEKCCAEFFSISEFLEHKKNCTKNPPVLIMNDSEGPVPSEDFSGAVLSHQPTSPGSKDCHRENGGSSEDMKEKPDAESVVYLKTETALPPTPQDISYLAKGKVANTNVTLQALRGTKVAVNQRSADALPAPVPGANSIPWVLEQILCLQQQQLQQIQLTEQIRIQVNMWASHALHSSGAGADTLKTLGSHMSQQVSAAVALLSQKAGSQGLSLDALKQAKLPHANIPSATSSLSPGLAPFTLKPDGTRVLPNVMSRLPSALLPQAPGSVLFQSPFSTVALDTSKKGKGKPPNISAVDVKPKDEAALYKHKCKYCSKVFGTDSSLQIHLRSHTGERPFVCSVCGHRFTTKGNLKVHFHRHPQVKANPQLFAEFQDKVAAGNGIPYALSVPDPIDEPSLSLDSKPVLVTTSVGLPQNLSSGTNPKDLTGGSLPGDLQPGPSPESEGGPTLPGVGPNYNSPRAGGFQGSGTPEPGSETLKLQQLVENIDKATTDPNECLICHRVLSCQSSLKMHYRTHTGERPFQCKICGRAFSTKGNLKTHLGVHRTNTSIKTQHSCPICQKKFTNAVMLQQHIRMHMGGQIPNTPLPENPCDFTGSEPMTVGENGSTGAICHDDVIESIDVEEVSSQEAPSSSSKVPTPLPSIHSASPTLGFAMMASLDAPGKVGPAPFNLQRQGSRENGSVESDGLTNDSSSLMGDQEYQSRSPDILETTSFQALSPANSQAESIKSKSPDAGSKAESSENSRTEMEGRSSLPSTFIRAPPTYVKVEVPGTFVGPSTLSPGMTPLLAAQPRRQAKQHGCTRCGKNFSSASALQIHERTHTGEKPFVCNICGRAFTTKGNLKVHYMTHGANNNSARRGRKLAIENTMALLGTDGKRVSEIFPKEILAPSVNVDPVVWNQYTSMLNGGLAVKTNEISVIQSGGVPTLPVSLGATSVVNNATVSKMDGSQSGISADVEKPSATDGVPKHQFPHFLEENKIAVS"}
{"Oligonucleotide": "ACGCGCAC", "E-score": -0.259}
{"Oligonucleotide": "TGCCAGCA", "E-score": -0.0137}
{"Oligonucleotide": "GTGACATA", "E-score": 0.228}
{"Oligonucleotide": "GTAGTCTA", "E-score": 0.0975}
{"Oligonucleotide": "GCGTCGCC", "E-score": -0.325}
{"Oligonucleotide": "ATTGCACA", "E-score": 0.168}
{"Oligonucleotide": "AATGTTAC", "E-score": 0.17}
{"Oligonucleotide": "AGTACGAT", "E-score": 0.194}
{"Oligonucleotide": "GCGTCAAC", "E-score": -0.239}
{"Oligonucleotide": "CCACCCCA", "E-score": -0.234}
{"Oligonucleotide": "CGGGGTGC", "E-score": -0.262}
{"Oligonucleotide": "CCGAAATA", "E-score": 0.303}
{"Oligonucleotide": "TGTTTGAA", "E-score": 0.195}
{"Oligonucleotide": "CATCTCAA", "E-score": 0.276}
{"Oligonucleotide": "CCGCGCGA", "E-score": -0.184}
{"Oligonucleotide": "CGAGCGCG", "E-score": -0.222}
{"Oligonucleotide": "CGAACACC", "E-score": -0.283}
{"Oligonucleotide": "ATGATAAC", "E-score": 0.354}
{"Oligonucleotide": "ACTAGCAG", "E-score": -0.00397}
{"Oligonucleotide": "ATCTTACC", "E-score": 0.191}
{"Oligonucleotide": "GATCCTGA", "E-score": -0.0637}
{"Oligonucleotide": "GCAACTTA", "E-score": 0.075}
{"Oligonucleotide": "AGACAGAG", "E-score": 0.0581}
{"Oligonucleotide": "AGGTAAAT", "E-score": 0.27}
{"Oligonucleotide": "CAGGCTCC", "E-score": -0.255}
{"note": "Excerpt of the above (sample 4):"}
{"Variant": "E131I", "relative binding score [%]": 23.4}
{"Variant": "A84S", "relative binding score [%]": 37.1}
{"Variant": "E152S", "relative binding score [%]": 16.2}
{"Variant": "E125F", "relative binding score [%]": 26.3}
{"Variant": "E38C", "relative binding score [%]": 0.593}
{"Variant": "F103V", "relative binding score [%]": -6.78}
{"Variant": "I162Q", "relative binding score [%]": 0.769}
{"Variant": "D75L", "relative binding score [%]": 44.1}
{"Variant": "Q31R", "relative binding score [%]": 11.8}
{"Variant": "G23I", "relative binding score [%]": -0.186}
